Measured values gathered from unrelated publications.
Parts stem from different laboratories: compare values within a part only.
Sequence of UniProt P11309 (whole entry, looked up): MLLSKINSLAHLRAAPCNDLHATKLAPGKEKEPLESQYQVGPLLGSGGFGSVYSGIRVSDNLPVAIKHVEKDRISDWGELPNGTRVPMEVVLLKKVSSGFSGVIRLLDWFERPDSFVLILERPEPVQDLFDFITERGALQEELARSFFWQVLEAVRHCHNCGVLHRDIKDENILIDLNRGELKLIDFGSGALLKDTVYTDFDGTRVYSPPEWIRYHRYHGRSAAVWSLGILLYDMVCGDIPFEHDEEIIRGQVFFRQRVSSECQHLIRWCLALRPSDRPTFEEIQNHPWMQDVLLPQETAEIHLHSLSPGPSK
Sequence of UniProt Q8TD08 (whole entry, looked up): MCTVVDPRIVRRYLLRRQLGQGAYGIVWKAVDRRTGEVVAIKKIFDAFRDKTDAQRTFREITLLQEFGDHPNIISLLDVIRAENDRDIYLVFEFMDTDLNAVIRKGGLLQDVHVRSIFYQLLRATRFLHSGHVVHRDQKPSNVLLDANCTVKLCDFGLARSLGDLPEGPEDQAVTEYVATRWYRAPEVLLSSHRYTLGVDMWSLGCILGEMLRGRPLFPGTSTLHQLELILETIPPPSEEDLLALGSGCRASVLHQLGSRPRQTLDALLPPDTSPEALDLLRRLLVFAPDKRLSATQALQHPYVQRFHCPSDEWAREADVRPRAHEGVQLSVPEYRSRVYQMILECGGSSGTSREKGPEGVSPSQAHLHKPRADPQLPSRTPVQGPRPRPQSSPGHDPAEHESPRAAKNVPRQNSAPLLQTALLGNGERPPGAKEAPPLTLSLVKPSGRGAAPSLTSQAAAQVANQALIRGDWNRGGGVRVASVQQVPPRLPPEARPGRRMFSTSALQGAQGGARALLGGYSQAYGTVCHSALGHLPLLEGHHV
Sequence of UniProt O75116 (whole entry, looked up): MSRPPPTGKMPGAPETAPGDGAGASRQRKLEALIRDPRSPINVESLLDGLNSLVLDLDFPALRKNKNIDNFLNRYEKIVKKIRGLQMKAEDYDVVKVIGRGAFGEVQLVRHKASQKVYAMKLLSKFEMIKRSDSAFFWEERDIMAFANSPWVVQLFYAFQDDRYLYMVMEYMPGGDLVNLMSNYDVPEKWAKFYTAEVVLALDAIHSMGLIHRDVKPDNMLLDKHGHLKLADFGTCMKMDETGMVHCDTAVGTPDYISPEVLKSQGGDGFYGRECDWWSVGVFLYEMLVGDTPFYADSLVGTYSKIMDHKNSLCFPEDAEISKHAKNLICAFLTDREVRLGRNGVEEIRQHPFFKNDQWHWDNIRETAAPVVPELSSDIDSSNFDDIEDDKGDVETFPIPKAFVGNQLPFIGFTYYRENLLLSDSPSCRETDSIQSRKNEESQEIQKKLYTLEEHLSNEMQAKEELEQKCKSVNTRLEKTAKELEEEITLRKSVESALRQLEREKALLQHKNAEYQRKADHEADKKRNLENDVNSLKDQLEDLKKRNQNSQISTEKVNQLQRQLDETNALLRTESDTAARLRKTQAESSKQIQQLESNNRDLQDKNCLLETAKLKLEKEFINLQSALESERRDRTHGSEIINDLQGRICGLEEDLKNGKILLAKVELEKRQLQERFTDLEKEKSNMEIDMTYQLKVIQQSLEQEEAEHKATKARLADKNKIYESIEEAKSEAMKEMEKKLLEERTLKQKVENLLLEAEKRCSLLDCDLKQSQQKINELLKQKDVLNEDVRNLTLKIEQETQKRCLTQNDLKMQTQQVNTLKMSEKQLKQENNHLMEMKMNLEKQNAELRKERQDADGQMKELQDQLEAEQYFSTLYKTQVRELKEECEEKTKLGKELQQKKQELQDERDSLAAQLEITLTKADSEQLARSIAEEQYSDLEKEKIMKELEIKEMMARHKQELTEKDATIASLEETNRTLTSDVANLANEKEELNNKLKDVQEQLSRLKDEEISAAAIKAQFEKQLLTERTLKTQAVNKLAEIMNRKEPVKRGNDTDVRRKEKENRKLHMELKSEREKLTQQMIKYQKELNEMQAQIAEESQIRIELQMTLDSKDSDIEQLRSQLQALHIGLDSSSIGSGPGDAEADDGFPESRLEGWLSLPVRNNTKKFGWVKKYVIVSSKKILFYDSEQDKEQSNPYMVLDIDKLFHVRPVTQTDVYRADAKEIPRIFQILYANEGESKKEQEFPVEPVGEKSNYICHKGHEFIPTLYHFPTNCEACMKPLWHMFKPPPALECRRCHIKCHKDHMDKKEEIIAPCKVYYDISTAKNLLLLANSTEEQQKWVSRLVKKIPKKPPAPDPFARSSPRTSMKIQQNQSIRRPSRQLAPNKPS
Sequence of UniProt Q15208 (whole entry, looked up): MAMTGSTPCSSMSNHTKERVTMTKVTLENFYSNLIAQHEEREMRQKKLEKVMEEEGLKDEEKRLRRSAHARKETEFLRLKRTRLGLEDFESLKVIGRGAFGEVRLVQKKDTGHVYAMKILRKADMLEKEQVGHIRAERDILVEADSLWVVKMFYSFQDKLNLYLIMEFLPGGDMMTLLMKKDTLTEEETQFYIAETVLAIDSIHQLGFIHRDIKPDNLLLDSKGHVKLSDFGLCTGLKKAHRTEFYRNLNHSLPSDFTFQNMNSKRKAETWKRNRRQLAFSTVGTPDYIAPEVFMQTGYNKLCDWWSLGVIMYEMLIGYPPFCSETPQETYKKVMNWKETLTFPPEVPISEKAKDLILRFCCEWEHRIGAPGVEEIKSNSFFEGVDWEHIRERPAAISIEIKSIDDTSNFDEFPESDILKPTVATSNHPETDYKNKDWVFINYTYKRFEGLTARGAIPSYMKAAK
Sequence of UniProt O94804 (whole entry, looked up): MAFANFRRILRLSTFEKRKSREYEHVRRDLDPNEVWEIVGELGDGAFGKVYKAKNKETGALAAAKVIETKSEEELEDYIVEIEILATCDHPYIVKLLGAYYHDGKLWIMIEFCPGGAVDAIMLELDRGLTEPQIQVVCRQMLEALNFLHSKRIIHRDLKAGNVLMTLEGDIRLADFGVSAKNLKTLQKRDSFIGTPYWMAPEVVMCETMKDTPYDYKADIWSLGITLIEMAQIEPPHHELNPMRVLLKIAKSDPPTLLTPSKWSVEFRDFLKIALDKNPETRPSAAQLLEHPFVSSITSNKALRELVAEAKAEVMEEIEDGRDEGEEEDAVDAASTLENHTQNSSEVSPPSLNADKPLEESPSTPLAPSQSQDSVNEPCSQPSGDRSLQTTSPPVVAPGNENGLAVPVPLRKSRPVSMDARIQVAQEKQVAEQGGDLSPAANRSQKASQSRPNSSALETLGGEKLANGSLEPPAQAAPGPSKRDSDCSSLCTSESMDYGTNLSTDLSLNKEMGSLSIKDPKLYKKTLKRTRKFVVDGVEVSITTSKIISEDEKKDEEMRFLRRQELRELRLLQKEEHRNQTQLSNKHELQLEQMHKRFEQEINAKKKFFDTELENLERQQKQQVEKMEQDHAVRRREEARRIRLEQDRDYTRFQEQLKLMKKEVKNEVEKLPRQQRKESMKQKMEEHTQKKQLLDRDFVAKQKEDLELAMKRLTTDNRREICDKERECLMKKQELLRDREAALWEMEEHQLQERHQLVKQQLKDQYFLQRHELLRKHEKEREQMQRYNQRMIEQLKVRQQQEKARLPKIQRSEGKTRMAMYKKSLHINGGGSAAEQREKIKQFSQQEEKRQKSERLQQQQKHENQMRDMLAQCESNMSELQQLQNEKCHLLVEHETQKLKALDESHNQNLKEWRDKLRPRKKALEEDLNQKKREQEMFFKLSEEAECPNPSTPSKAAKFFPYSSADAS
Sequence of UniProt P23443 (whole entry, looked up): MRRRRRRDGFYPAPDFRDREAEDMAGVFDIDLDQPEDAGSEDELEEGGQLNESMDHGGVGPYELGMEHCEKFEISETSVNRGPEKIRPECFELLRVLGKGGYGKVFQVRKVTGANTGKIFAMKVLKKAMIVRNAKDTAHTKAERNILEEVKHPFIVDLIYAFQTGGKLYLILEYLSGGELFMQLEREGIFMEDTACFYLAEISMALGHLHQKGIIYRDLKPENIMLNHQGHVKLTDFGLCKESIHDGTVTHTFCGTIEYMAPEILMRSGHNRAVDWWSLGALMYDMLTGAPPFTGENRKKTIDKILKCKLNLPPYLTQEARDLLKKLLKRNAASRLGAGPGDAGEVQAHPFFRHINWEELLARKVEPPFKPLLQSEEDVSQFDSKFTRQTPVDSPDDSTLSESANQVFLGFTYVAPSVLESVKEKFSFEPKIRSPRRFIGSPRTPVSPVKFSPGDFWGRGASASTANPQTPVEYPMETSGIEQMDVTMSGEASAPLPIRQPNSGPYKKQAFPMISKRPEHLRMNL

Set 1
Structure (SMILES): O=C(Nc1cnn(-c2csc(C(=O)NC3COC3)c2)c1)Nc1ccccc1Cl
Observed: enzyme activity
Tested at: 5 µM
Baseline: untreated control
| target | remaining activity [%] |
| --- | --- |
| Serine/threonine-protein kinase 38 (STK38, Homo sapiens, UniProt Q15208) | 98.5 |
| Ribosomal protein S6 kinase beta-1 (RPS6KB1, Homo sapiens, UniProt P23443) | 91.1 |
| Serine/threonine-protein kinase pim-3 (PIM3, Homo sapiens, UniProt Q86V86) | 60.5 |
| Serine/threonine-protein kinase pim-1 (PIM1, Homo sapiens, UniProt P11309) | 64.4 |
| Rho-associated protein kinase 2 (ROCK2, Homo sapiens, UniProt O75116) | 99.4 |
| Serine/threonine-protein kinase 10 (STK10, Homo sapiens, UniProt O94804) | 87 |
| Mitogen-activated protein kinase 15 (MAPK15, Homo sapiens, UniProt Q8TD08) | 123 |
| Serine/threonine-protein kinase ULK1 (ULK1, Homo sapiens, UniProt O75385) | 131 |
| Serine/threonine-protein kinase MRCK gamma (CDC42BPG, Homo sapiens, UniProt Q6DT37) | 85.5 |

Set 2
Cell line: mouse MPNST tumor cells
Technique: high-content nuclear imaging
Measured: cell number
Tested at: 10 µM
Time: 12 h
Setting: mean of 2 replicates
Baseline: plate mean
Direction: higher = more cells
| SMILES | nuclei count [z-score] |
| --- | --- |
| CCC(=N\O)/C(C)=C/c1ccc(F)cc1 | 0.228 |
| C[C@@H]1CN(c2c(F)c(N)c3c(=O)c(C(=O)O)cn(C4CC4)c3c2F)C[C@H](C)N1 | 0.803 |
| COc1cc2ncn(-c3cc(OCc4ccccc4S(C)(=O)=O)c(C#N)s3)c2cc1OC | 4.28 |
| CCCN(CC1CC1)c1nc(C)nc(Nc2c(Cl)cc(Cl)cc2Cl)c1Cl | -0.0029 |
| O=C1c2c(O)cccc2Cc2cccc(O)c21 | 0.511 |
| CC1CCN(CC[C@H]2CCCN2S(=O)(=O)c2cccc(O)c2)CC1 | 0.706 |
| c1ccc(Cn2c(NCc3ccco3)nc3ccccc32)cc1 | 0.776 |
| O=C(O)c1ccc(C(=O)N[C@@H](c2ccc(OC(F)(F)F)c(F)c2)c2ncccc2F)nc1 | 0.0267 |

Set 3
Cell line: sample D normal colon organoid
Technique: CellTiter-Glo
Tested at: 1 µM
Setting: mean of replicates
Baseline: DMSO
| SMILES | viability |
| --- | --- |
| Cc1c(C(=O)O)cc(-c2ccc(C3CCNCC3)cc2)c2ccc(-c3ccc(C(F)(F)F)cc3)cc12 | 114% |
| C[C@@H]1CN(c2cc(-c3nn(C)c4ccc(OC5(C)CC5)cc34)ncn2)C[C@H](C)O1 | 98.8% |
| CO[C@@H](C)c1c(Nc2ccc([C@@H](N(C)C(=O)C3CCS(=O)(=O)CC3)C(F)(F)F)cc2)cnc2cc(Cl)nn12 | 107% |
| O=C1NC(c2ccccn2)Sc2ccccc21 (centres unmarked) | 105% |
| c1ccc(N2CCN(Cc3nc4ccccc4[nH]3)CC2)nc1 | 103% |
| O=C(Nc1cccnn1)N1CCC(=Cc2cccc(Oc3ccc(C(F)(F)F)cn3)c2)CC1 | 89.2% |
| O=C(NC[C@@H]1[C@H]2CN(C(=O)OCc3cc(C(F)(F)F)cc(C(F)(F)F)c3)C[C@@H]12)c1ccc2[nH]nnc2c1 | 91.3% |

Set 4
Target: cAMP-dependent protein kinase catalytic subunit gamma (PRKACG, Homo sapiens, UniProt P22612)
Sequence of UniProt P22612 (whole entry, looked up): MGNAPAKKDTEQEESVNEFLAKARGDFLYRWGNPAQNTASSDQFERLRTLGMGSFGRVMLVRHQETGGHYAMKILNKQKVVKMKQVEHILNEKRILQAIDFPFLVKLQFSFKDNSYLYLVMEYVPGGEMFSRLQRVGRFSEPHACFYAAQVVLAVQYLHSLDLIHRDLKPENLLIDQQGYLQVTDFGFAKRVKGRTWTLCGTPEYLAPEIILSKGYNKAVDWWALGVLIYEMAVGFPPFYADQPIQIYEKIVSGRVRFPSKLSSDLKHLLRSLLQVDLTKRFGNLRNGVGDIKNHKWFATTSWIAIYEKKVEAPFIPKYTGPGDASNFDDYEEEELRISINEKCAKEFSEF
Observed: enzyme activity
Action: inhibitor
Tested at: 0.5 µM
Baseline: control
| SMILES | remaining activity [%] |
| --- | --- |
| Cc1ccc(NC(=O)c2ccc(CN3CCN(C)CC3)cc2)cc1Nc1nc(-c2cccnc2)cs1 | 110 |
| O=C1NC(=O)C(c2cn(CCCn3ccnc3)c3ccccc23)=C1Nc1ccccc1 | 117 |
| CCOC(=O)c1c(C)[nH]c(/C=C2\C(=O)Nc3ccccc32)c1C | 88.4 |
| C#Cc1cccc(Nc2ncnc3cc(OCCOC)c(OCCOC)cc23)c1 | 108 |
| O=C(O)c1ccc2c3c1cccc3c(=O)n1c3ccccc3nc21 | 127 |
| NCCNc1ncc(C(N)=O)c(Nc2cccc(C(F)(F)F)c2)n1 | 97.9 |
| COc1cc2nccc(Oc3ccc(NC(=S)NC(=O)c4ccccc4C)cc3)c2cc1OC | 107 |
| O=C(CCCc1ccc(-c2ccccc2F)cc1)Nc1ccc(O)cc1 | 93.5 |
| Cc1cccc(-c2[nH]c(C(C)(C)C)nc2-c2ccc3c(c2)OCO3)n1 | 119 |
| Cc1ccc(Nc2nccc(N(C)c3ccc4c(C)n(C)nc4c3)n2)cc1S(N)(=O)=O | 111 |
| COc1cc2ncnc(Nc3ccc(F)c(Cl)c3)c2cc1OCCCN1CCOCC1 | 107 |
| COc1cc2ncnc(Nc3ccc(Oc4ccccc4)cc3)c2cc1OC | 137 |
| Oc1ccc(-c2nc(-c3ccncc3)c(-c3ccc(F)cc3)[nH]2)cc1 | 78.4 |
| Nc1ncnc2n[nH]c(Nc3ccc(F)cc3)c12 | 96.2 |
| CNC(=O)c1cc(Oc2ccc(NC(=O)Nc3ccc(Cl)c(C(F)(F)F)c3)cc2)ccn1 | 100 |
| CO[C@H]1C[C@@H]2CC[C@@H](C)[C@@](O)(O2)C(=O)C(=O)N2CCCC[C@H]2C(=O)O[C@H]([C@H](C)C[C@@H]2CC[C@@H](O)[C@H](OC)C2)CC(=O)[C@H](C)/C=C(\C)[C@@H](O)[C@@H](OC)C(=O)[C@H](C)C[C@H](C)/C=C/C=C/C=C/1C | 113 |
| N#CC(C#N)=C(N)/C(C#N)=C/c1ccc(O)cc1 | 96.8 |

Repeated from above (set 3):
| SMILES | viability |
| --- | --- |
| O=C1NC(c2ccccn2)Sc2ccccc21 (centres unmarked) | 105% |
| c1ccc(N2CCN(Cc3nc4ccccc4[nH]3)CC2)nc1 | 103% |
| O=C(Nc1cccnn1)N1CCC(=Cc2cccc(Oc3ccc(C(F)(F)F)cn3)c2)CC1 | 89.2% |
| O=C(NC[C@@H]1[C@H]2CN(C(=O)OCc3cc(C(F)(F)F)cc(C(F)(F)F)c3)C[C@@H]12)c1ccc2[nH]nnc2c1 | 91.3% |
